Experimental data from different studies.
Parts stem from different laboratories: compare values within a part only.

Block 1
Target: Interferon regulatory factor 3, full length, phosphomimetic (IRF3, Homo sapiens, UniProt Q14653, residues 1-427, S386D/S396D/S398D/S402D/T404D/S405D)
Sequence of UniProt Q14653 (whole entry, unmodified, looked up): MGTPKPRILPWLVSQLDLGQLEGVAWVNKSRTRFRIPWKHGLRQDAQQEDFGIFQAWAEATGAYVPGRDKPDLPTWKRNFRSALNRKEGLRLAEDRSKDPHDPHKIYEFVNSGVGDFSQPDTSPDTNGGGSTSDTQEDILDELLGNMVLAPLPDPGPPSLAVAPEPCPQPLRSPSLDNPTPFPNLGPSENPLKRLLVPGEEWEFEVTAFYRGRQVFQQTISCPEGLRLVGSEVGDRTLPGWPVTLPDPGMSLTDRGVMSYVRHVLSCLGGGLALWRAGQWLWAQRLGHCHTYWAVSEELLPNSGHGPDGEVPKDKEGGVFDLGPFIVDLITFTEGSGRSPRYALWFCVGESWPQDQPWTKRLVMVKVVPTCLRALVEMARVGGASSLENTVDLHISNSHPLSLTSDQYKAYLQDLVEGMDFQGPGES
Method: protein-binding microarray
Form: double-stranded DNA, one strand shown
Matrix: in vitro
Tested at: 2540 nM top
Setting: 60-bp whole probe
Added: salmon DNA 0.4 mg/ml
Baseline: random background probes
Direction: higher = stronger binding
Measurement: fitted relative affinity
Strand = GCCTAGCACTTAGATTTCGGGTTTTGATTAGTGCTAGTCTTGATTCGCTTGACGCTGCTG; value = 1.96 z-score
Strand = GCCTAGCACGGTCTTTCCACTTTCTTTTGGTGCTAGGTCTTGATTCGCTTGACGCTGCTG; value = 2.08 z-score
Strand = GCCTAGCACTATGGTATTTTTTTGTAATCGTGCTAGGTCTTGATTCGCTTGACGCTGCTG; value = 0.268 z-score

Block 2
Target: Ras GTPase-activating protein-binding protein 1, C-terminal RGG region (G3BP1, Homo sapiens, UniProt Q13283)
Sequence of UniProt Q13283 (whole entry, looked up): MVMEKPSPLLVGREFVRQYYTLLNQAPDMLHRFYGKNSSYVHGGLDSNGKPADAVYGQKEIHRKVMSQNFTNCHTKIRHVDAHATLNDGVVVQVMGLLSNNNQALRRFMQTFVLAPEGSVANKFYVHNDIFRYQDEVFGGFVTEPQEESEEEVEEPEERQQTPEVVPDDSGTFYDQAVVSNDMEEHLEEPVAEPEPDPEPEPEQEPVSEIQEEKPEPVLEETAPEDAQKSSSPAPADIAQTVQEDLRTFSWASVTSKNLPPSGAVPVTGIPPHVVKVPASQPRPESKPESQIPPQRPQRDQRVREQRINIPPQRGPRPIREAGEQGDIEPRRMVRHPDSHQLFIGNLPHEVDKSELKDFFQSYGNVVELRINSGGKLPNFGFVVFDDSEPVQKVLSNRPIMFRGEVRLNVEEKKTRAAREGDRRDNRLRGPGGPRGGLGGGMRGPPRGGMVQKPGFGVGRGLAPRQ
Method: RNA Bind-n-Seq
Form: RNA
Matrix: in vitro
Tested at: 1 µM
Setting: whole 134-nt RNA, ends assumed
Added: 150 mM KCl
Baseline: input library
Direction: higher = stronger binding
Measurement: log2 enrichment
Strand = GGGAGUUCUACAGUCCGACGAUCGUCCUGUGCUACACAUCGUAUGUACCGAAUCGGGUUUGGGUUUUUGGGAAAAAAAGGGAAAGUAUUAUGUUACGCCGUUCGGAUCUGCACUGGAAUUCUCGGGUGUCAAGG; value = -0.216
Strand = GGGAGUUCUACAGUCCGACGAUCGUCCUGUGCUACACAUCGUAUGUACCGAAUCGGCCCCCGGCCCCCGGGGCCCCCGGGGAAAGUAUUAUGUUACGCCGUUCGGAUCUGCACUGGAAUUCUCGGGUGUCAAGG; value = -1.29
Strand = GGGAGUUCUACAGUCCGACGAUCAAGUCCUGUGCUACACAUCGUAUGUACCGAAUCGGGAAAAGGGAAAAGGAAAAGGGGAAAGUAUUAUGUUACGCCGUUCGGAUCUGCACUUGGAAUUCUCGGGUGUCAAGG; value = -0.904
Strand = GGGAGUUCUACAGUCCGACGAUCUGCUGGUGAGCUGCUGCCUGGCAGGCCACGUCUGCGUGUGGGACGCGCAGACCGGGGAUUGCCUAACGCGCAUUCCGCGCCCAGGGUAGGUGGAAUUCUCGGGUGUCAAGG; value = -1.31

Block 3
Target: Centromere-binding protein 1, full length, N-terminal tag (CBF1, Saccharomyces cerevisiae, UniProt P17106, residues 1-351)
Sequence of UniProt P17106 (whole entry, looked up): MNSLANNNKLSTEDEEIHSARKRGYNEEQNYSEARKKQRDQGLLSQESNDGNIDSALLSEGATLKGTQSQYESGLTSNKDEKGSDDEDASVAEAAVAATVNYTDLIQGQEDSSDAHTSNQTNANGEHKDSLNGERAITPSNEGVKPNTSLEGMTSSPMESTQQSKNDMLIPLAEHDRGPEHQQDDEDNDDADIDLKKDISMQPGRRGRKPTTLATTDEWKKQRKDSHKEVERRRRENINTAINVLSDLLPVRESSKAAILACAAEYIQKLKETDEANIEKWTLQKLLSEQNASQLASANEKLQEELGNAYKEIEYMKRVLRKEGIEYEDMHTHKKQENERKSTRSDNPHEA
Method: protein-binding microarray
Form: double-stranded DNA, one strand shown
Matrix: in vitro
Tested at: 0.8 µM
Setting: whole 60-bp probe, no competitor
Direction: higher = stronger binding
Measurement: fluorescence intensity
Strand = CTACCAAGACTGGATCACCTTTACATAGCACTTTTCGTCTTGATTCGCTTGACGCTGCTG; value = 508 a.u.
Strand = CCTAACTACTATAATATCGTGACATAGCTTCGTACAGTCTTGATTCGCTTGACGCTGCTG; value = 814 a.u.
Strand = CTATGTAACTATGATCACGGCTGCGTGCCGGGTTTCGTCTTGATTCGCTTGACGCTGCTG; value = 634 a.u.
Strand = CTATTCACACAAGATGCCATCAGCGCTACTGTATTCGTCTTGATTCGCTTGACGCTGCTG; value = 510 a.u.
Strand = GAATTCCATGTGTCTCGTGATACCTTAATTTCATAGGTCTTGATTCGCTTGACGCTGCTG; value = 3190 a.u.

Single results of other studies
Substance = PhoQ, residues 284 288 289 292 302 303 SVTLVV; target = PhoP, residues 12 14 15 18 19 VQGLL (Escherichia coli, UniProt P23836); test = Sort-seq, measured: YFP reporter; system = E. coli; setting = PhoQ-PhoP variant library, added: 10 µM Mg2+; how to read = baseline: high Mg2+ state, higher = stronger signaling; measurement = fold induction; value = 8.86

Repeated from above (block 2):
Strand = GGGAGUUCUACAGUCCGACGAUCGUCCUGUGCUACACAUCGUAUGUACCGAAUCGGGUUUGGGUUUUUGGGAAAAAAAGGGAAAGUAUUAUGUUACGCCGUUCGGAUCUGCACUGGAAUUCUCGGGUGUCAAGG; value = -0.216
Strand = GGGAGUUCUACAGUCCGACGAUCUGCUGGUGAGCUGCUGCCUGGCAGGCCACGUCUGCGUGUGGGACGCGCAGACCGGGGAUUGCCUAACGCGCAUUCCGCGCCCAGGGUAGGUGGAAUUCUCGGGUGUCAAGG; value = -1.31
